Published values pooled from the literature.
Numbered parts are unrelated; each lists some results of a single study. Changes are numbered by the printed parent chain.

Study 1
Target: Centromere-binding protein 1, full length, N-terminal tag (CBF1, Saccharomyces cerevisiae, UniProt P17106, residues 1-351)
Sequence of UniProt P17106 (whole entry, looked up): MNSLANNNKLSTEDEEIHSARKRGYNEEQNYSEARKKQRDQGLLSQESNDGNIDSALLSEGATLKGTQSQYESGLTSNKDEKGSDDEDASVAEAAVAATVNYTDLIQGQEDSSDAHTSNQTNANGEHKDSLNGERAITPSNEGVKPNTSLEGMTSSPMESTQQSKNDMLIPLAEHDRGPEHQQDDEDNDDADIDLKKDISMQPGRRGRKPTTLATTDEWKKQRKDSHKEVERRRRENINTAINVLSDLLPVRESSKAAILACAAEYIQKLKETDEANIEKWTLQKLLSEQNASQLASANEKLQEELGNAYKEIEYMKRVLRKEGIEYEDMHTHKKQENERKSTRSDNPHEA
Technique: protein-binding microarray
Form: double-stranded DNA, one strand shown
Matrix: in vitro
Tested at: 0.8 µM
Setting: whole 60-bp probe, no competitor
Reading: higher = stronger binding
Shared flanks, not repeated: … GTCTTGATTCGCTTGACGCTGCTG
`CTAGTTTGTCATGATAGCATGACGGTAGCAGGCTTC` gave a fluorescence intensity of 537 a.u.
For `GAACGATGACCCTATTGCAGGTGATCCTGATGTTAG`, the fluorescence intensity was 732 a.u.
The fluorescence intensity of `CTATTCTCTGAAAAAAACGTGTAGTTTCATGACTTC` is reported as 634 a.u.
The fluorescence intensity of `GAATATCCTAACCACCACCTCAAAAAAAAAAAATAG` is reported as 561 a.u.
`CTACGCATCCCCGTAAACGTGTTAAATATTACATTC` has a fluorescence intensity of 624 a.u.
`GAAAGCGCTTCAGACATCAGCATGGGTTGCAAATAG` gave a fluorescence intensity of 571 a.u.
With `CTAATCACAAAGAATCACGAGGAAAAGATTGATTTC` the fluorescence intensity was 1170 a.u.
The fluorescence intensity of `CTACTTTCGCAAATTCATGTGTTTTAAGGGTAATTC` is reported as 527 a.u.
The fluorescence intensity of `CTATAACGTTGCTCTTGCACGTGTATTTCGCTGTTC` is reported as 3580 a.u.
With `GAAATCGAAAGAAGGGGCGTGGTCAGAAGGGTATAG` the fluorescence intensity was 592 a.u.
With `GAAGCATTTTTGGGGCTGATGTTTTAGTTCGAATAG` the fluorescence intensity was 504 a.u.
`GAATTGCGGTTACTACTGACCACGAAGCAATGCTAG` has a fluorescence intensity of 521 a.u.
For `CTACCTTTACACCTTCATCAGATTCGCCATCAATTC`, the fluorescence intensity was 546 a.u.
`CTACGTGTAGCGACGCACGTCAGACATGGATGCTTC` has a fluorescence intensity of 503 a.u.
The fluorescence intensity of `CTATGAGAATAACGTCTCCTGATTAAGCAGGTGTTC` is reported as 625 a.u.
The fluorescence intensity of `CTATTGTTATCACCCCACGACGAAGATAATACGTTC` is reported as 635 a.u.
`GAATATCAGTTACCCCGCGTGCCACCTTCAGTTTAG` gave a fluorescence intensity of 553 a.u.
The fluorescence intensity of `GAAAGACACCGCCACCACCTGAGCCTCCATGCGTAG` is reported as 494 a.u.
For `CTACTTTCCGGTTACCACGCCTCGGGTTTCGCATTC`, the fluorescence intensity was 550 a.u.
For `CTATCAAAGAAAAATCACGAATTGAATAAGCTTTTC`, the fluorescence intensity was 525 a.u.
`CCTAACTACTATACCCACACGCAATAGCTTCGTACA` gave a fluorescence intensity of 537 a.u.
`CTAGCAATGGCGATTCACGTGTTCGGTAACCACTTC` gave a fluorescence intensity of 4630 a.u.
`CTATAAAACGAAGCCATCGTGCACAATGGTAAGTTC` has a fluorescence intensity of 515 a.u.

Study 2
Target: ABI1, truncated, D143A, DHFR fusion (Arabidopsis thaliana)
Technique: DHFR PCA, deep sequencing
Matrix: yeast
Setting: methotrexate growth selection, single substitutions
Added: (+)-ABA 0.39 µM
Reference: wild-type fitted maximum
Reading: higher = stronger binding
Parent: PYL1, truncated, DHFR fusion (Arabidopsis thaliana); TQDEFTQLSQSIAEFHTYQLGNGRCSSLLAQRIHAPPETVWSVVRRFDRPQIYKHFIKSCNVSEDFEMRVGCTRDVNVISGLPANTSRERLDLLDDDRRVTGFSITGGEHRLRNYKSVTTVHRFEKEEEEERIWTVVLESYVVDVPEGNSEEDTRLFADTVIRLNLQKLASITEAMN; partner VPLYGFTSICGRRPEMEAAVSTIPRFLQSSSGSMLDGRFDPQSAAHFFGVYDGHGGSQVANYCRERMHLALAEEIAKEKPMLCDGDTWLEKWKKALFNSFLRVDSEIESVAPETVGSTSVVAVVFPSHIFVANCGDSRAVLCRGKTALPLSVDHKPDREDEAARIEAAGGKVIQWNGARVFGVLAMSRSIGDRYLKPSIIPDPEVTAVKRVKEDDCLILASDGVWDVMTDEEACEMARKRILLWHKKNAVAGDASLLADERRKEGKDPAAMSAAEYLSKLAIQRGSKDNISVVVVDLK
`E139L`: “relative binding score” 16.6%.
Under “relative binding score”, `N77R` is recorded as 64.4%.
`Y115N`: “relative binding score” -0.181%.
Under “relative binding score”, `V145F` is recorded as -32.5%.
`S9K` — result for “relative binding score”: 67.5%.
`S87N` — result for “relative binding score”: 5.9%.
`R155N`: “relative binding score” -17.7%.
`R74M`: “relative binding score” -2.39%.
`L82S`: “relative binding score” -0.149%.
For `A170W`, “relative binding score” read -4.72%.
`Y18G` — result for “relative binding score”: -4.24%.
For `N165L`, “relative binding score” read 8.07%.
For `P83V`, “relative binding score” read 0.0338%.
`G107Q` — result for “relative binding score”: 3.37%.

Study 3
Target: RNA binding protein fox-1 homolog 2, RRM domain, GST-SBP tag (RBFOX2, Homo sapiens, UniProt O43251-10, residues 100-194)
Technique: RNA Bind-n-Seq
Form: RNA
Matrix: in vitro
Tested at: 365 nM
Setting: natural RNA segment, single round, ends assumed
Reference: no-protein control
Reading: higher = stronger binding
Shared flanks, not repeated: GGGAGUUCUACAGUCCGACGAUC … UGGAAUUCUCGGGUGCCAA
Residues (chain): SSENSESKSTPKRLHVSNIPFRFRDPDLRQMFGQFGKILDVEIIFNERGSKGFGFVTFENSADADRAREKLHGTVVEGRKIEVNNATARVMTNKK
`GUUGAUGAUACAUUUGGAAGGAUUUGCUUGUUUAAUAUGUACAUUUUUUGUGUUAACAGCUUUUUGACACAAUUACUGGGUAAUUUCUAAUAUAGGCAGCAGACUGUUUU`: “RBNS enrichment (R)” 0.717.
For `CUAUUAAAAUUCUGAUGUUUCUGUGAAAUUCUCAGAGUGUUUAAUUGUACUCAAUGGUAUCAUUACAAUUUUCUGUAAGAGAAAAUAUUACUUAUUUAUCCUAGUAUUCC`, “RBNS enrichment (R)” read 0.525.
Under “RBNS enrichment (R)”, `GUACUAUCUAUAUAUAUAUCUCAAGCAUCUUUCAGGUCUUUGUGUGUGGCUUUCUUAAAGCCCUGUUGUAAAAAAUUACUAUGUGGAUGGCAGUCUCUCACAUCACAGAU` is recorded as 0.628.
For `AACACUGAACUUAUCAGAAAAAUGUAUAUAUAGGCAAGGAAAGAAAUACAGUACUGUUUCUGGACCCUUAUAAAAUCCUGUGCAAUAGACACAUACAUGUCACAUUUAGC`, “RBNS enrichment (R)” read 0.375.
`AAGACUGAGAAUGUUCCCCCAAAUCUCCUCUGCCAACCAGAGCUCUGGGCACAGAUUCUGGUGGCUCCCUGCUGGCCCUCUUGGGCCUCUGCUCACACCUGGGAAGGGGC` — result for “RBNS enrichment (R)”: 0.668.
Under “RBNS enrichment (R)”, `CUGUUACCUAGAGGGUCUCACCUCCCCACUCUUCACAGCAAACCUGAGCAGCGCGUCCUAAGCACCUCCCGCUCCGGUGACCCCAUCCUUGCACACCUGACUCUGUCACU` is recorded as 0.899.
For `CCUGUGCCAGUGCUUUCCUAAGCAGUAUACCUUUAAUCAGAACUCAUUCCCAGAACCUGGAUGCUAUUACACAUGCUUUUAAGAAACGUCAAUGUAUAUCCUUUUAUAAC`, “RBNS enrichment (R)” read 0.857.
`CUCACAGGUUUUCAUUCUUUUGAACUCUGGUGCACUCCAUCUGUAAUCCAUGUCUAUAAUCUACCAACAAAGAUGUACUCUUAAACUCAGUAUCACCAGGCACUAUAUUU`: “RBNS enrichment (R)” 0.216.
Under “RBNS enrichment (R)”, `AGUGCUACAUAGGUGCUUUGGGCGUAUGUAACAUUAGUGUCCUUCCUUGAAGCCACAAGCUAGUUUUCUUAGUUUUAAAAUCCUGUUGUAUGAAUGGCAUUUGUAUAUUA` is recorded as 0.669.
`AAAAAUGAAGGAGCUUUGUAAAUUUUUUAAAAAUUAUGAAUCGUAUCAAGUAGUUGUUUACAUUUGACAAAAUAGGAACUAUGCCGGCAGAGUCCAACCGAAAACCCCCU`: “RBNS enrichment (R)” 0.31.
For `UCCAGAAGGAAAUCAUUUUAGUUAUGAACUAAAUAAUAAAAAUUAGAACUUCAAAUGCGAUGGUCUUGACUAUUAGACCAGAUUUAGUAGCUCCAUAUCUAAGAUUUUUC`, “RBNS enrichment (R)” read 0.526.
Under “RBNS enrichment (R)”, `AUAAACCACUUGAGCCUAUAUCAGUCGUUUUAGUGUCUGACCUAAUAUUUGGAGCUAUCAGUGCUUUGUUGAUUUAGAUGAUGACUCAAGAUUUUUUCUGGUCCAUUUCC` is recorded as 0.331.

Study 4
Target: Interferon regulatory factor 5, full length, phosphomimetic (IRF5, Homo sapiens, UniProt Q13568-2, residues 1-514, K96S/S451D/S453D/S456D/S462D)
Technique: protein-binding microarray
Form: double-stranded DNA, one strand shown
Matrix: in vitro
Tested at: 250 nM
Setting: 60-bp whole probe
Added: salmon DNA 0.4 mg/ml
Reference: random background probes
Reading: higher = stronger binding
Shared flanks, not repeated: GCCTAGCAC … GTCTTGATTCGCTTGACGCTGCTG
The log fluorescence of `GACGGTCTCGGTTTGGGGACGTGCTAG` is reported as 0.342 z-score.
The log fluorescence of `TTAGGTATCGACTATCGGGTAGTGCTA` is reported as 5.85 z-score.
`TCATGTCTCCCCCATCTTACTGTGCTA` has a log fluorescence of 0.0613 z-score.
For `TCACACATATAATTTTGTACTGTGCTA`, the log fluorescence was 0.792 z-score.
The log fluorescence of `GTGTGTCTGATTATTTACATGTGCTAG` is reported as 0.221 z-score.
The log fluorescence of `GACGGTATCGGGTATCGGAACGTGCTA` is reported as 3.6 z-score.
`TTAGATCTCGGTATCGGTTAGTGCTAG` has a log fluorescence of 5.62 z-score.
The log fluorescence of `TTAGAGCTGAGTATCGATTAGTGCTAG` is reported as 6.32 z-score.
The log fluorescence of `AACGATATCAGTTTCGAGACGTGCTAG` is reported as 7.12 z-score.
`TCCATTTTTACCCTCCTTACGTGCTAG` has a log fluorescence of 0.702 z-score.
For `GAAGATTTCAGTCTCGAGACGTGCTAG`, the log fluorescence was 1.32 z-score.
`TTAGATATCATACTGGATTAGTGCTAG` gave a log fluorescence of 0.635 z-score.
`CAACCAATCATTTTTGCTTAGTGCTAG` has a log fluorescence of 0.443 z-score.
`TTAGGTAGCGGTTTCGGTTAGTGCTAG` has a log fluorescence of 8.02 z-score.
With `TTAGTTTTCATTATTGTGTCGTGCTAG` the log fluorescence was 3.07 z-score.
The log fluorescence of `GGAGTTTTCAGTCCTGGGATGTGCTAG` is reported as 1.32 z-score.

Some of these lines once more (study 1):
`CTACGTGTAGCGACGCACGTCAGACATGGATGCTTC` has a fluorescence intensity of 503 a.u.
The fluorescence intensity of `CTATGAGAATAACGTCTCCTGATTAAGCAGGTGTTC` is reported as 625 a.u.
The fluorescence intensity of `CTATTGTTATCACCCCACGACGAAGATAATACGTTC` is reported as 635 a.u.
